Results gathered from unrelated publications.
Parts stem from different laboratories: compare values within a part only. Positions count from the first letter of the parent shown.

Sample 1
Target: Histone acetyltransferase KAT6A, both winged helices, GST fusion (KAT6A, Homo sapiens, UniProt Q92794, residues 1-181)
Method: protein binding microarray
Form: double-stranded DNA, one strand shown
Sample: in vitro
Tested at: not given
Notes: 8-mer, flanks averaged, mean of 2 arrays, mostly near background
Relative to: not given
Direction: higher = stronger binding
Quantity: E-score
Target sequence (chain): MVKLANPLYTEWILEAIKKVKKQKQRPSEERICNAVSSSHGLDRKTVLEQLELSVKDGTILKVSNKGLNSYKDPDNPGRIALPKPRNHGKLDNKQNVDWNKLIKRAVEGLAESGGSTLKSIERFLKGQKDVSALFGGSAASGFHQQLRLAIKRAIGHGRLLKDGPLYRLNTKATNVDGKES
AAAACTAC: 0.0569
CAAGAGCG: 0.099
CCCAGATC: -0.14
CAGATTAG: -0.179
GTAAGATA: -0.0172
CAGAAACA: 0.0102
CACACATG: -0.124
AACATTAC: -0.0284
ACTCTCTC: -0.131
CGGCACAC: 0.152
ATAGAGAG: -0.232
AATATACT: -0.163
AAGTGGTG: -0.146
CCGACTGC: 0.141
GGTACGAA: -0.101
ACCGCCGG: 0.34

Sample 2
Target: TAR DNA-binding protein 43, full length, His tag (TARDBP, Homo sapiens, UniProt Q13148, residues 1-414)
Method: RNA Bind-n-Seq
Form: RNA
Sample: in vitro
Tested at: 20 nM
Notes: 6-mer, flanks averaged, single round
Together with: 150 mM LiCl
Relative to: input library
Direction: higher = stronger binding
Quantity: 6-mer enrichment (R)
CCGAUA: 0.835
UCACGC: 0.851
GCUAGA: 0.913
AUUGAG: 1.02
UUUGGU: 1.32
CCGGUA: 0.91
AGCCAU: 0.877
GCAAUU: 0.926
UGAGUA: 1.09
GACCCA: 0.923
GCUUAU: 0.975
UGGUUG: 1.37
CGCCGU: 0.906
GUGGUC: 1.11
UUGUCU: 1.04
UGAUUC: 0.877
CGAAUU: 0.855
AUUCUU: 0.979
CACCAA: 0.946
UGAUAA: 0.895
AAUUGG: 1.02
UCCAAG: 0.841
GGACUG: 1.19
UGAUGG: 1.12
CCGUAA: 0.852

Sample 3
Target: NFIL3, bZIP domain (human)
Method: DHFR protein complementation
Sample: yeast
Notes: single substitutions, most at no-binding floor
Relative to: wild-type JUN-FOS pair
Direction: higher = stronger binding
Quantity: binding fitness
Starting sequence: JUN, bZIP domain (human); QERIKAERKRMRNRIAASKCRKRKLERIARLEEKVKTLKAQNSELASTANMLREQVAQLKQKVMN; partner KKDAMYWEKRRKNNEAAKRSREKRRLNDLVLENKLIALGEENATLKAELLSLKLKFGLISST
I28Y: -1.49 natural log
T48W: -1.35 natural log
I28C: -1.52 natural log
L59P: -1.52 natural log
S43L: -1.35 natural log
L45G: -1.48 natural log
R30V: -1.44 natural log
E44V: -1.43 natural log
K39A: -1.34 natural log
L45E: -1.59 natural log
K39Q: -1.58 natural log
E54A: -1.53 natural log
I28L: -1.3 natural log
R53I: -1.41 natural log
E44G: -1.47 natural log
T37H: -1.5 natural log
M51K: -1.57 natural log
R30F: -1.26 natural log
K39G: -1.49 natural log
E54C: -1.53 natural log
E33F: -1.62 natural log
E44T: -1.42 natural log
A46L: -1.52 natural log
V56K: -1.4 natural log
R53Q: -1.53 natural log

Sample 4
Target: ABI1, truncated, D143A, DHFR fusion (Arabidopsis thaliana)
Method: DHFR PCA, deep sequencing
Sample: yeast
Notes: methotrexate growth selection, single substitutions
Together with: (+)-ABA 710 µM
Relative to: wild-type fitted maximum
Direction: higher = stronger binding
Quantity: relative binding score
Starting sequence: PYL1, truncated, DHFR fusion (Arabidopsis thaliana); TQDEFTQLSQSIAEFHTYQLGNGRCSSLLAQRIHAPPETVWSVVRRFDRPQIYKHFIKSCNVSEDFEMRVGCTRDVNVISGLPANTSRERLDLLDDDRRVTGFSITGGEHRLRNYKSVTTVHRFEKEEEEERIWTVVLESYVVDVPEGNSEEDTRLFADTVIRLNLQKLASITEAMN; partner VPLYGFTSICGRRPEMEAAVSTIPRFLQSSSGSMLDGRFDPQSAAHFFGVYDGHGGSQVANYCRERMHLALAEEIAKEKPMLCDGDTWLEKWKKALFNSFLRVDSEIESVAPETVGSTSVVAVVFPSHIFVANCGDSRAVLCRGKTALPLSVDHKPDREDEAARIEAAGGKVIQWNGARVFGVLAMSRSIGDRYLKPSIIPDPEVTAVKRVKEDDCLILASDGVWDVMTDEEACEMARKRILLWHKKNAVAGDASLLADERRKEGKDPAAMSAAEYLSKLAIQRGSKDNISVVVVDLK
I79E: 87.1%
I79P: 71.3%
R46K: 97.2%
S150P: 49.3%
T1S: 96.7%
D97E: 122%
V76Q: 34.9%
S11N: 92.3%
G71L: 58.4%
T160H: 90.3%
G71C: 64.8%
S80A: 76.8%
S87F: 4.75%
V62M: 98.7%

Sample 5
Target: CCNA1, cyclin fold, Cln2 fusion (human)
Method: yeast growth competition, sequencing
Sample: yeast
Notes: weak parent motif
Relative to: not given
Direction: higher = stronger binding
Quantity: normalised enrichment score
Starting sequence: PKN2 docking peptide (human); VSAVRKLDFSDTM
R5F: 0.177
S10C: 0.761
V4F: 0.892
F9K: 0.311
T12Q: 0.96
F9M: 0.471
K6M: 0.895
S10V: 0.313
K6F: 0.235
A3T: 0.519
F9A: 0.0384
V4H: 0.617
D11A: 1.23
S10P: 0.567
R5D: 0.0107
S10D: 1.17
K6Q: 0.648
V4A: 1.31
K6R: 1.33
A3M: 0.105
D8M: -0.222
D8N: 1.06
F9V: 0.0771
T12N: 0.951
L7C: 0.0744

Sample 6
Target: RING finger protein unkempt homolog, zinc fingers 1-6, GST-SBP tag (UNK, Homo sapiens, UniProt Q9C0B0, residues 30-357)
Method: RNA Bind-n-Seq
Form: RNA
Sample: in vitro
Tested at: not given
Notes: RNA with constant flanks, human and mouse sites, ends assumed
Relative to: input RNA pool
Direction: higher = stronger binding
Quantity: bound/input enrichment
Construct (chain): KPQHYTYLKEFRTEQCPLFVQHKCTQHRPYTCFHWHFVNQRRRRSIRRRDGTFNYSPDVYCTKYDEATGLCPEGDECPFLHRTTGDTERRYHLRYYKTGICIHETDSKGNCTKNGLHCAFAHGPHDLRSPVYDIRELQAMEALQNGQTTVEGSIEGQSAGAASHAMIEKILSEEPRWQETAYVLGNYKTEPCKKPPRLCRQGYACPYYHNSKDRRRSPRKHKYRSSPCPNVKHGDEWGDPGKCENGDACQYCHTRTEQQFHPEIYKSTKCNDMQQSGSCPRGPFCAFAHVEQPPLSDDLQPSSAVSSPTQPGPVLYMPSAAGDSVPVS
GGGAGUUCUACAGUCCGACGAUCUCUCGAGUGCGGACGGGAAUCUGGUCGGCUGCCCUGAAUGGAGACCUGGGCCGUGUGAAGUAUUUCAUCCAGAAGGCCACAGACCCUAGCCAGCCAGAUUCUGCCGGCUACACCGCACUGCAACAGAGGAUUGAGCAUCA: 0.0724 ratio
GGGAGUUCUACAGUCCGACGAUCUUCCUUCUCCACCCCCGCUCUCUCUCUCUUGGCCUGAGAUCUCUGUGCAGGAACCAAGAUGGGGCUGAAGCCUCUGGAGGCAGUUGGUUGGGGGCGGGCAGGCAGGAGGCCCUCCCUCCACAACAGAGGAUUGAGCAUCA: 0.31 ratio
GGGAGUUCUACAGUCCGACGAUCAGUUGGGAUGAUCAAUGCAGUGCUGUUGAAGUGGGAGAGAAGAAAUGUGGAAACCUGGCUUGUCUGCCAGAUGAGAAGAAUGUUCUUGUUGUAGCCGUCAUGCAUAACUGUGAUAAAAGGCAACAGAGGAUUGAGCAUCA: 0.469 ratio
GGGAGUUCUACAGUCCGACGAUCUGUCCCCCAUGAGGUUGUGAACCCCUCCCCCCAACUUUUCAUGUUUCUUAAAGGCAUUUUGGUUUUUUAAAAUCUGUACAGCAAGAGCAACUUUUUCUGUCAAAUAAAAAUGAGAAAUGCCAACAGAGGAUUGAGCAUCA: 0.264 ratio
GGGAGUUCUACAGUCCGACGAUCAUCAAUGAACAUGACUAUGCAAAAGCAGCCUUUUGUUUAGAGGAACUAAUGAUGACUAAUCCACACAACCACUUAUACUGUCAGCAGUAUGCUGAAGUUAAGUAUACCCAAGGUGGACUUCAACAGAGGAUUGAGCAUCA: 0.181 ratio
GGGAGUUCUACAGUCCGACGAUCCCCACUGUCCCAUAUAUAUUCCUUUGUUGUUCUUGAGUGGACCAGGUUACACACUUAAACUUAGGGAGGUAAGACAAGAGUCCCAGUUAAAAUAUCUAUGUCCUAGAGAAGCAUCCACUUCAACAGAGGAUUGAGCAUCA: 0.734 ratio
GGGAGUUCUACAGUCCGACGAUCUUCAUUCAGUGUGGCCAUGCUGUCUGUGUGUGUCCGUGCAAUGGACCAGCAUCGACAGGAGAAGAGUCUGACACAAGGUUUUCACAGAUACAAAAAACCCCUAGGUCUUGAAAUCGUGACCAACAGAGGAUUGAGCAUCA: 0.12 ratio
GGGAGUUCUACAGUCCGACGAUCGAGGUCCUGGAGCUGUUUCUCGACCCCGCUUUCUUUCAGAUGGAUACUUCCUGUGUUCAUUGGAAGUCCAUUAUUGACCAUCUUUUGACUCAUGAGAAAACAAUGUUUAAGGAUUUAAUGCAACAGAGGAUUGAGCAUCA: 0.0763 ratio
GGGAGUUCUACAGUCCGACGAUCCUGAUUGUGGACAACAGCAUGGCUCCAGCCUCCGAUCUUGCACUGCCCUUGGAAACAAAAGUAGCAACAGUUCCAAUUAAAGACAAAGGAACUGUACAGACUGAAGAAAAACCACGUGAACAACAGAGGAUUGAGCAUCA: 0.126 ratio
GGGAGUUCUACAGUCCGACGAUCGCGGAGAAGGACUCUCUGGACCCCUCCUUCACGCACGCCCUGCGCUUGGUGAACCGAGAAAUAGAAAAGUUUCAAAAGGGAGAAGGCAAGGAGGAAGAGAAGUACAUUGACGUGGUGAUACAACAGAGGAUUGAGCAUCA: 0.375 ratio
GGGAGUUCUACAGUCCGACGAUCUUUCUAUUACAUCUGCUUUCAGAAGUCAGCAGCCUCCAUAGAGGGCUACUACUACCAUCGGAGCUCAGAAUGGUAUCAGUCCCUCAACCUGACCCAUGUUCCUGAACACAGUGCACCCAUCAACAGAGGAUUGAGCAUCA: 0.201 ratio

Single results of other studies
PhoQ, residues 284 288 289 292 302 303 TGYLSA
fold induction (PhoP, residues 12 14 15 18 19 NMSFL (Escherichia coli, UniProt P23836); Sort-seq, item: YFP reporter; E. coli; PhoQ-PhoP variant library, together with: 10 µM Mg2+; relative to: high Mg2+ state, higher = stronger signaling): 2.68

Some of these lines once more (sample 3):
L45E: -1.59 natural log
K39Q: -1.58 natural log
E54A: -1.53 natural log
I28L: -1.3 natural log
R53I: -1.41 natural log
E44G: -1.47 natural log
T37H: -1.5 natural log
M51K: -1.57 natural log
R30F: -1.26 natural log
K39G: -1.49 natural log
E54C: -1.53 natural log
E33F: -1.62 natural log
E44T: -1.42 natural log
A46L: -1.52 natural log
